Measured values collected from several papers.
Every numbered part comes from another study and shows a few of its results, in no order. Positions count from the first letter of the parent shown.

Set 1 — method: DHFR PCA, deep sequencing; matrix: yeast; together with: (+)-ABA 0.032 µM; reference: wild-type fitted maximum; reading: higher = stronger binding
Target: ABI1, truncated, D143A, DHFR fusion (Arabidopsis thaliana)
Setting: methotrexate growth selection, single substitutions
Parent: PYL1, truncated, DHFR fusion (Arabidopsis thaliana); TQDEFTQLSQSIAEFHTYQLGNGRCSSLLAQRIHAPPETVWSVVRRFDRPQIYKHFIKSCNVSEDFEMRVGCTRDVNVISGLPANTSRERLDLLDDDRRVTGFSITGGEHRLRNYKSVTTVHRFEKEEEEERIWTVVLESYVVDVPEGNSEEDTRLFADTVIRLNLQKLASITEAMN
Variant | relative binding score [%]
L8I | -9.78
S80V | -0.0399
T39K | 10.7
D144Y | 1.84
G102A | 5.63
T106D | 1.14
D97W | -1.86
L166S | -2.66
D144M | -6.36
L82W | 49.2
R45H | -0.147
F124C | 15.6
R74S | -4.14
E109L | -0.859
Y141N | 0.139
R90W | -0.403

Set 2 — target: CEP164, C-terminal peptide (human); method: DHFR complementation, deep sequencing; matrix: yeast; reference: wild type; reading: higher = weaker binding
Setting: single substitutions, model-inferred values
Parent: PDZK1, PDZ domain 2 (human); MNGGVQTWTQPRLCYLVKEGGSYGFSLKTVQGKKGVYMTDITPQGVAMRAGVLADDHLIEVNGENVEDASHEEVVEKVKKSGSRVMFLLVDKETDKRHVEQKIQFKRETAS; partner HNRVKVYRF
Variant | binding free energy change [kcal/mol]
V90E | -0.184
K80E | 0.503
V17T | -0.0533
Y23M | 0.357
I41H | 1.5
H71Q | 0.365
W8F | -0.131
F87Y | 1.89
N2I | -0.042
R84H | 0.0988
F25W | 1.64
K96D | 0.0415
L13S | 0.0179
R49F | 0.535
E67K | 0.303
E67L | -0.0574
Q104Y | -0.12
G21W | 0.28
R84C | 0.0907
K92I | -0.013

Set 3 — method: RNA Bind-n-Seq; molecule type: RNA; matrix: in vitro; tested at: not given; reference: input RNA pool; reading: higher = stronger binding
Target: RING finger protein unkempt homolog, zinc fingers 1-6, GST-SBP tag (UNK, Homo sapiens, UniProt Q9C0B0, residues 30-357)
Sequence of UniProt Q9C0B0 (30-357, looked up): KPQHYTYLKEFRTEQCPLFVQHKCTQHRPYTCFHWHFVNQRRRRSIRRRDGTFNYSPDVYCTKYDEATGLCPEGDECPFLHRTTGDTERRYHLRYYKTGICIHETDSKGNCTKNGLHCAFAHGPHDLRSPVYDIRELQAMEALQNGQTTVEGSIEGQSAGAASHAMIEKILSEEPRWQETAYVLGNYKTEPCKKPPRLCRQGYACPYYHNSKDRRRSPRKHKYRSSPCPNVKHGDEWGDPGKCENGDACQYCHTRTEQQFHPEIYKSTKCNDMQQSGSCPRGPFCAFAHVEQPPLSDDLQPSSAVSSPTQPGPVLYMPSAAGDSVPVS
Setting: RNA with constant flanks, human and mouse sites, ends assumed
Constant ends, left off below: GGGAGUUCUACAGUCCGACGAUC … CAACAGAGGAUUGAGCAUCA
Oligonucleotide | bound/input enrichment [ratio]
CCAAACCGAUUUGAUAUGAACGUGUGUUCUCGAUUCGUGAAGUCCUUAAAUGAAGAGGAUAGUAAAAAUAUUCAAGAUCAAGUUAACUCUGACCUGGAGGUGGCAUCUGUCUUAUUUAAA | 0.256
GUUGGAAUUGAUAUGGAGAUAUCUAAAAACUUUCAACGCAUCCUUCAAAAACAGGGGUUUAAAUUUAAAUUGAAUACAAAGGUUACUGGUGCUACCAAGAAGUCAGAUGGAAAAAUUGAU | 0.766
ACAUCAUCAAAAUAUUACUAAAUGCAGGAGCUGAGAUUAACUCUAGAACUGGUAGCAAAUUGGGCAUCUCUCCUCUGAUGUUAGCAGCUAUGAAUGGGCAUACAGCUGCUGUUAAGCUCC | 3.45
UCACACCUUCUUAUAAAGUGUGAACAAGGAAGGUCAUGUUUUUGUGGGUAUUUUGUCAGACUUAGAGGUUUCAUUUCAGGGCAUAGUCAAAGGCAUCAUCCUCCCAACUACCCACUUGAU | 0.334
AUUGUAAAGAAAUUGCCUAUUGUGGAAACACUGGGCUGCUGUAAUGUGAUUUGUUCAGAUAAAACUGGAACCCUGACGAAGAACGAGAUGACUGUUACUCACAUCCUCACUUCCGAUGGC | 0.13
AUCCACCAGCUUCUCUCUCACACGCACACAUGCACACACACACAAUUUUAACUUGGUUUUUCUUUUUUGUAAAUAAUGUACAUACUGUCAAUUUUUUAUUAAAGAAAUAUGCUUUGAUGU | 1.02
UAGCUUAUUUUUCCAUAUAGUAAUGCAGUUAGGGUUCUCAGCACUUUCUUUCUUCUAUCCUUUUUUUAACUCUUCAUAUUAUGUUCAGAUGAUCAUACUGUCAAGGUUUGUGUACAUUAC | 8.04
AAUGCUGUUCCUUUGGGAACCACGGCCAAAGAAGAGAUGGAGCGGUUCUGGAAUAAGAAUAUAGGUUCAAACCGUCCUCUGUCUCCCCACAUUACUAUCUACAGUUGGUCUCUUCCCAUG | 0.144
CCAAGGCCUGCAGGUUUGCCUGCAAUGAGACUUUACUCUCUACACUUAAAGAACAUUCUUUCUGAGCUGCUGUGAAUAAAUUUGGAAUGAUUUUGUCUAUUUUCAACUAAUGGAGAACUA | 0.255
CAGCGGCAGUUCAUUACAGCAAAUGGCCCUGAGGUGCUGGAGUCUCAAAUUCAAGCAAUCUGAUCACCAGUUCCUUCAUCAGAGCAACGUCUUUCAUCACAUUAACAAUAUUUUGUCAAA | 0.21
CUCACAGGUAGAAUGAACUGUGUACUGGCCACAUAUGGAAGCAUUGCAUUGAUUGUCUUAUAUUUCAAGUUAAGGUCCAAAAAAACUCCAGCUGUGAAAGCAACAUAAAUGGAUUUUAAA | 0.151

Set 4 — target: CCNB2, cyclin fold, Cln2 fusion (human); method: yeast growth competition, sequencing; matrix: yeast; setting: weak parent motif; reference: not given; reading: higher = stronger binding
Parent: E2F1 docking peptide (human); PPVKRRLDLETDH
Variant | normalised enrichment score
PPVKRRLDLETDG [H13G] | 0.422
PPVKRRDDLETDH [L7D] | 0.0672
MPVKRRLDLETDH [P1M] | 0.494
PPVFRRLDLETDH [K4F] | 0.0719
PPVKRRLDLERDH [T11R] | 0.308
PPEKRRLDLETDH [V3E] | 0.31
PPVKRRLDLELDH [T11L] | 0.946
PPVKRRLCLETDH [D8C] | 0.256
PPVKRRLDLENDH [T11N] | 0.141
PPVKRRLDLKTDH [E10K] | 0.115
PPCKRRLDLETDH [V3C] | 0.5
PPVNRRLDLETDH [K4N] | 0.335
PPVKRRLDLETMH [D12M] | 0.403
PPVKRRLDLETDL [H13L] | 0.686
PPVKLRLDLETDH [R5L] | -0.186
PPVKRRLDLETDC [H13C] | 0.324
PPVKPRLDLETDH [R5P] | -0.735
PPVKRRLDLETPH [D12P] | 0.976

Set 5 — method: RNA Bind-n-Seq; molecule type: RNA; matrix: in vitro; tested at: 365 nM; reference: no-protein control; reading: higher = stronger binding
Target: RNA binding protein fox-1 homolog 2, RRM domain, GST-SBP tag (RBFOX2, Homo sapiens, UniProt O43251-10, residues 100-194)
Setting: natural RNA segment, single round, ends assumed
Constant ends, left off below: GGGAGUUCUACAGUCCGACGAUC … UGGAAUUCUCGGGUGCCAA
Residues (chain): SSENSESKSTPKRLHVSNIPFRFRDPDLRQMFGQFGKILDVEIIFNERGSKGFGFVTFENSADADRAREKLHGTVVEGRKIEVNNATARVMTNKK
Oligonucleotide | RBNS enrichment (R)
CUUAAAAUAUGUGAAGUUUUCCUUGCUAUUUCAAUAACAGAUGGUGCUGCUAAUUCCCAACAUUUCUUAAAUUAUUUUAUAUCAUACAGUUUUCAUUGAUUAUAUGGGUA | 0.711
AACAUAGAUUAAAUUUGUUUAGCACUAAACUAUCCCUAGAGUAAAUUUUUAUGCUUGACAAGUUGUAUUUUAUAUAUUAGAAAUAAGAUGCCACACAGGGCAAUCCAGAU | 0.699
AAACCAGAACAGUAGAAGUAGCCAAUCGUAAGACCUGAAGACAUUUUGAAUGUCCCACUGGACUAACCUUUCUUUUGAUGUGUGUUUUUAGUUUAGAAGUGCUAUAUUCC | 0.377
ACAGGAGUGAGGCCCUCAUGGAGAACCUCUGUUAAGGCAAUGUGGAAGGGGAAGCCCCCACACAGAGACCCCACUGGGACACUGCCUAGUAGAGCUGUCAGAAGAAGGCC | 0.34
CAUGGUGGCGGCGAAGAAGAGAAAGAUGUGUUUUGUUUUGGACUCUCUGUGGUCCCUUCCAAUGCUGUGGGUUUCCAACCAGGGGAAGGGUCCCUUUUGCAUUGCCAAGU | 1.68
ACCCACCAGCACCCCAGCCCUCCAGGGUCAUCUCAGCACCCAGGCCUCUCCCCAUGGCUGGGGCAGCCCCGCCCCCUCCCUGGGUGCAUCUGCCCUCUGAGUUCUUUCUG | 0.482
AGUCACUACGCCCGGCCCAUGUCUGUCUGUCUUGAUGUGUGAGCAGCAGCUGUGGUCAUUAAACCAUUAGUUUACCCCUCUAGAACUGGGGUCUGCAAACUCCCACCUGC | 0.515
CUCAUUUUAAUGUGUGCCUUAUGCCUUGAAUGGACCAGCUGAGAUCACUAUAUUUAUUCAAGCUGUGAUUGUUUUCUUUCUCACUCAAAAAAGAAUUUUGUAUGUUGUGG | 2.16
CUUUUCUAACAGGCUCAGUCCUUACGAGCUUCUCAACACUGGUUCUUCUGUUAAGAGUGACUGUUCAUUCAGGGAGCUGAGAAUUCUGGCACAGAUCUUUGUCCCAAGCC | 0.226
UUUUCUUUUUUCUUUCUAGCAUUUGAUGUCUAAAUAAUUUUGGACAUCUUUUUCCUAGACCAUGUUUCUGUCUUACUCUUAAACCUGGUAACACUUGAUUUGCCUUCUAU | 0.331
AAAAAUUUUAAAAAUAUAACGAGGGAUAAAUUUUUGGUGGUGAUAGUGUCCCAGUACAAAAAGGCUGUAAGAUAGUCAACCACAGUAGUCACCUAUGUCUGUGCCUCCCU | 0.55
UAUCUGCCAUUCUAUUUAUAGCCUGAAAUGAUUCUGGCCUACCCUGUCCUGUCUGUAUGAUCUAAAAACCAGCCUUUUCCCCAGAAGGCUCUGAGCACAUCCAGAAGUGA | 0.601

Further values, each from its own experiment
Molecule | target | test | system | setting | how to read | quantity | result
PhoQ, residues 284 288 289 292 302 303 ASSHFY | PhoP, residues 12 14 15 18 19 IQSYL (Escherichia coli, UniProt P23836) | Sort-seq, item: YFP reporter | E. coli | PhoQ-PhoP variant library, together with: 10 µM Mg2+ | reference: high Mg2+ state, higher = stronger signaling | fold induction | 25.8

For quick reference, copied from above (set 3):
Oligonucleotide | bound/input enrichment [ratio]
UCACACCUUCUUAUAAAGUGUGAACAAGGAAGGUCAUGUUUUUGUGGGUAUUUUGUCAGACUUAGAGGUUUCAUUUCAGGGCAUAGUCAAAGGCAUCAUCCUCCCAACUACCCACUUGAU | 0.334
AUUGUAAAGAAAUUGCCUAUUGUGGAAACACUGGGCUGCUGUAAUGUGAUUUGUUCAGAUAAAACUGGAACCCUGACGAAGAACGAGAUGACUGUUACUCACAUCCUCACUUCCGAUGGC | 0.13
AUCCACCAGCUUCUCUCUCACACGCACACAUGCACACACACACAAUUUUAACUUGGUUUUUCUUUUUUGUAAAUAAUGUACAUACUGUCAAUUUUUUAUUAAAGAAAUAUGCUUUGAUGU | 1.02
UAGCUUAUUUUUCCAUAUAGUAAUGCAGUUAGGGUUCUCAGCACUUUCUUUCUUCUAUCCUUUUUUUAACUCUUCAUAUUAUGUUCAGAUGAUCAUACUGUCAAGGUUUGUGUACAUUAC | 8.04
AAUGCUGUUCCUUUGGGAACCACGGCCAAAGAAGAGAUGGAGCGGUUCUGGAAUAAGAAUAUAGGUUCAAACCGUCCUCUGUCUCCCCACAUUACUAUCUACAGUUGGUCUCUUCCCAUG | 0.144
